# Published values pooled from the literature.
# Numbered parts are unrelated; each lists some results of a single study.

# Block 1 — method: protein-binding microarray; molecule type: double-stranded DNA, one strand shown; sample: in vitro; concentration: 0.8 µM; notes: whole 60-bp probe, no competitor; direction: higher = stronger binding; shared flanks, not repeated: … GTCTTGATTCGCTTGACGCTGCTG
# Target: Centromere-binding protein 1, full length, N-terminal tag (CBF1, Saccharomyces cerevisiae, UniProt P17106, residues 1-351)
# Sequence of UniProt P17106 (whole entry, looked up): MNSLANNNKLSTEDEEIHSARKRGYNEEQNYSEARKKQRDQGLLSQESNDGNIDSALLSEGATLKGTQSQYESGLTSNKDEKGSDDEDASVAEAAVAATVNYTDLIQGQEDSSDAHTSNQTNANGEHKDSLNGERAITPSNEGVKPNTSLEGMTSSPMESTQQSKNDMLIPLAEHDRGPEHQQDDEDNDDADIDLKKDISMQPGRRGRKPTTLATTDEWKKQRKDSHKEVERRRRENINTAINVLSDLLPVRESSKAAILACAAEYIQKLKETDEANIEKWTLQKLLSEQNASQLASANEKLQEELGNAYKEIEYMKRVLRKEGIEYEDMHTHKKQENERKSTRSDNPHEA
Sequence,fluorescence intensity [a.u.]
GAAACGAACTTGAATAGGGTGACATATAAATATTAG,543
CTATTCCATGTATGGCTGATGGTGGTGTTCAAATTC,533
GAATATGTAGTCTACCACATGCTCAAGGTCGATTAG,673
GAAAGGAAGAATAGTCACACTTGCAGTGTAATTTAG,519
CTAATTGCACTTTCCCATGCGCACTACCCATCTTTC,509
GAAGTGGCGAATGATCACGATAGAAACTGCCCTTAG,623
CTAGTGAAAATTAATATGGTGACGAACGACGGATTC,490
GAATGTAAAAGAGAGCACGTCTGTAGTTTCAAATAG,562
GAAACGGTCGTCTACCACGTCGCTGGTGGAGCCTAG,489
GAATTCAAAACTCATCACCAAAAAAAAAAAATTTAG,483
GAAGCATCATGCGGGAACGTGCAGTAAAGCTCATAG,673
CTATTTTGTACATATCGTGTCATACTGCGACTGTTC,606
CTAAAATATGACAGGCACGTAAAAGGGTTCTTCTTC,523
TGTACGAAGCTATTGACTGCGTATATAGTAGTTAGG,511
CTAATCCAAGAAACCCGCGTGAAAAAAAATGGCTTC,551
CCTAACTACTATAAAAACATCATATAGCTTCGTACA,537
TGTACGAAGCTATATCACATATATATAGTAGTTAGG,550
GAAGTACGCCTTTTCCGCGTGCGCCGGTCTTTATAG,592
CCTAACTACTATATATTCATGATATAGCTTCGTACA,517

# Block 2 — method: RNA Bind-n-Seq; molecule type: RNA; sample: in vitro; concentration: 365 nM; relative to: no-protein control; direction: higher = stronger binding
# Target: RNA binding protein fox-1 homolog 2, RRM domain, GST-SBP tag (RBFOX2, Homo sapiens, UniProt O43251-10, residues 100-194)
# Notes: natural RNA segment, single round, ends assumed
# Shared flanks, not repeated: GGGAGUUCUACAGUCCGACGAUC … UGGAAUUCUCGGGUGCCAA
# Residues (chain): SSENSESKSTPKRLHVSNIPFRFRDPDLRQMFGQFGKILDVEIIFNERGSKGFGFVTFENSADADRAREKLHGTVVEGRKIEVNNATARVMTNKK
Sequence,RBNS enrichment (R)
CAUCAUCGACCGAGGAGCACAAAGAAGUUCUGUUUCUGUUUUUUUCAGAAACUUUAUUUUAGCUGUCAAGCAGAGAAUAGCUUGAACUAUUCAGACUAUUGUUGGCACUG,0.258
CGCAUUUGUGUGUAUUAAUGCUGAAGAAUUAAAUGUUUAAAGAGUUUAAAUUUUGAAGGCGUUUGCUAUAUACAGUUGUCCUGCAUUAUUAUAAAGAGUUUUCAGGAAGU,0.783
UGAAGUAGCCCUUAAUCCUAACUUUUAAGCAAAAUCCCUUGGCCGCACUUUUAAGGUUUGGUUGUUUUUUAUAUAUAUAUGUGUAUAGUUACCAACUUAAAAAUAAAAAA,0.813
UUCUGAUCAGAUGAACAUCUGUCCAAGCCAAAAUUCUGCAGAGGGCAGGUGAGCUUUGCUUAUGUAGUUUGCUUUCACCAUAUAGACUGAGAGAAGAUUUCAGACUUCUU,0.337
UCCACUUCACUCUGAGUGCUUUCAGGAUCUGGGGCUUCAAGACUCACUGCUUCAGUCAGCCUUCAUUAGCACCAAAGACUCCAUGAAGGUCGUCCCCCACACAAACAUAC,0.369
AUCGUAAUGUCAAAGCCCUUGCUGAAUGAAGAACAGCUUAGCUCACUUCCUGGAUGUUGCAAUAAUACAAACCAGUGUACCUCUGACCUCACCGGGAGAGCUGGGGCGCU,0.431
ACUAAUUAUUAUUUUAAAAUAUAUGAAGACAAUAAUUCUACAUGUUGUCUUAAGAUGGAAAUACAGUUAUUUCAUCUUUUAUUCAAGGAAGUUUUAACUUUAAUACAGCU,0.749
UGGUUAUUUGGAUUGCUUGCUUCCCUUUUUCCACCUGGGACAUUGUAAUCAUAAAAUAACAGUAAAUUCCAAACCUCAAAAACUAUUAUGGCCUGAGCACAGCUGAAAUC,0.626

# Block 3 — method: protein binding microarray; molecule type: double-stranded DNA, one strand shown; sample: in vitro; concentration: not given; relative to: not given; direction: higher = stronger binding
# Target: Histone acetyltransferase KAT6A, winged helix 1, GST fusion (KAT6A, Homo sapiens, UniProt Q92794, residues 1-85)
# Notes: 8-mer, flanks averaged, mean of 2 arrays, mostly near background
# Target sequence (chain): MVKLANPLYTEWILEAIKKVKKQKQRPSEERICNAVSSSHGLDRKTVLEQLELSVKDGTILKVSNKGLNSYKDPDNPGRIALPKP
Sequence,E-score
AATTTGGT,-0.231
ACCTAAGG,-0.0318
AACCTATG,-0.108
ACACCAAT,-0.171
TCTTTGAA,-0.0781
AATATGCC,0.0687
AACAAGTC,-0.187
GAAAATGC,-0.127
GGCCCCAC,0.0132
GGAATTGA,-0.0477
CAAAGCAA,-0.0213
GAACCATC,-0.0536
GAGACAAC,-0.152
CGATCCAA,-0.0662
ATGCTAGA,-0.191
CAGTCACG,0.0758
TAGCTGGA,-0.302
CTTTAATC,-0.0115
ACAGTGGG,-0.208
CGACAGTC,-0.105
ATAAAGAT,-0.0875
AACGTATC,-0.121
CTCTGGTA,-0.175
GTGCGGCA,0.272

# Block 4 — method: aptamer microarray, sandwich; molecule type: DNA with 2'F-ANA; sample: in vitro; concentration: 200 nM; together with: Cy3 exosite-II aptamer, 400 nM; direction: higher = stronger binding; sequence: GGTTGGTGTGGTTGG
# Target: Prothrombin, mature alpha-thrombin (F2, Homo sapiens, UniProt P00734)
# Notes: whole 15-mer aptamer, many near background
Modification,mean fluorescence intensity [a.u.]
2'F-ANA at 2 5 6 11 12 13 14,97.9
2'F-ANA at 1 2 6 8 9 10 11 13 14 15,94.7
2'F-ANA at 4 7 9 13 15,179
2'F-ANA at 1 2 5 6 10 13 14,47
2'F-ANA at 2 6 14 15,117
2'F-ANA at 2 8 9 10 11 12 14,80
2'F-ANA at 2 4 5 6 7 8 10 13 14,46.9
2'F-ANA at 4 6 7 8 10 13 14 15,57.7
2'F-ANA at 1 4 5 7 8 9 10 12 14,48.2
2'F-ANA at 3 7 9 10 11 12 13 14,450
2'F-ANA at 1 2 4 5 6 7 8 9 10,48.1
2'F-ANA at 1 2 3 9 10 12,120
2'F-ANA at 1 2 3 6 7 9 12 13 15,270
2'F-ANA at 4 5 7 12 13 14,45.7
2'F-ANA at 2 6 8 10 12 13 14,90
2'F-ANA at 3 5 6 7 9 11 12 15,186
2'F-ANA at 1 2 3 4 5 9 10 15,48.6
2'F-ANA at 1 4 6 7 13 15,76.8
2'F-ANA at 2 3 4 5 9 10 11 12 15,56.8
2'F-ANA at 3 4 6 7 10 13 14,176
2'F-ANA at 1 2 4 5 8 10 13,44.8
2'F-ANA at 1 6 7 8 9 11 12 13 15,222

# Some of these lines once more (block 1):
Sequence,fluorescence intensity [a.u.]
CTATTCCATGTATGGCTGATGGTGGTGTTCAAATTC,533
GAATATGTAGTCTACCACATGCTCAAGGTCGATTAG,673
GAAACGGTCGTCTACCACGTCGCTGGTGGAGCCTAG,489
GAAAGGAAGAATAGTCACACTTGCAGTGTAATTTAG,519
CCTAACTACTATAAAAACATCATATAGCTTCGTACA,537
CTAATTGCACTTTCCCATGCGCACTACCCATCTTTC,509
CTAGTGAAAATTAATATGGTGACGAACGACGGATTC,490
CCTAACTACTATATATTCATGATATAGCTTCGTACA,517
TGTACGAAGCTATATCACATATATATAGTAGTTAGG,550
GAATGTAAAAGAGAGCACGTCTGTAGTTTCAAATAG,562
GAAGTACGCCTTTTCCGCGTGCGCCGGTCTTTATAG,592
CTATTTTGTACATATCGTGTCATACTGCGACTGTTC,606
